Assay results pooled from the literature.
Lines come from different studies, so protocols differ. Values joined by “and” are separate records of one study, mostly repeats; a detail may differ. ± marks the error that the study gave.
ULK2: Serine/threonine-protein kinase ULK2 (ULK2, Homo sapiens, UniProt Q8IYT8)
UniProt Q8IYT8, sequence (whole entry, looked up): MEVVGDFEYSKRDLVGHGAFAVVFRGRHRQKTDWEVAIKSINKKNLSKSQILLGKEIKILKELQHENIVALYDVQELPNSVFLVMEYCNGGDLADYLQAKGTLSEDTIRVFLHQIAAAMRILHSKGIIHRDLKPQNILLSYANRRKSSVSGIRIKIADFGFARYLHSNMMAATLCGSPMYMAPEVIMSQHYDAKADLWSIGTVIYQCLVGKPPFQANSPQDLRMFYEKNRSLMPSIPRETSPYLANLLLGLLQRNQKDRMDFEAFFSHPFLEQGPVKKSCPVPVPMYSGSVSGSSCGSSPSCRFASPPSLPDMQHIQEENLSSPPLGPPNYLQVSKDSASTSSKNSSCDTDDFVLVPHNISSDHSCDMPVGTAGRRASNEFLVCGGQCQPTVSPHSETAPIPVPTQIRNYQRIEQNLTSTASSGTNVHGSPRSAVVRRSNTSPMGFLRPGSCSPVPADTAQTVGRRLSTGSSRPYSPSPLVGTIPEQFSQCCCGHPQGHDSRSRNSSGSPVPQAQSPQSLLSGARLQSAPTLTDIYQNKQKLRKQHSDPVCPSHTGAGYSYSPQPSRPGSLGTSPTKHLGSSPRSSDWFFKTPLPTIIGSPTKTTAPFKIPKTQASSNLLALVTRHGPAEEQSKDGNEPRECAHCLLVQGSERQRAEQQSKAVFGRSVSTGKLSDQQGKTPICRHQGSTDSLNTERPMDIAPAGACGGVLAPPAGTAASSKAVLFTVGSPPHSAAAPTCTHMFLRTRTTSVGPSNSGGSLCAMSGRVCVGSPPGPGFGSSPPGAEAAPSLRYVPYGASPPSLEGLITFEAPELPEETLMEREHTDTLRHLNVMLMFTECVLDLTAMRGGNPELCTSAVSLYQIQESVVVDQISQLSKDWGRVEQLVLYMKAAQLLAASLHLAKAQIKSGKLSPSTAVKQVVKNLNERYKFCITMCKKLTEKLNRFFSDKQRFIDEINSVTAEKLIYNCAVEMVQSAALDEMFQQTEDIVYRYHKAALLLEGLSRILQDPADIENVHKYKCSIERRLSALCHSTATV
Oprd1: Delta-type opioid receptor (Oprd1, Rattus norvegicus, UniProt P33533)
UniProt A5GZW8, sequence (whole entry, looked up): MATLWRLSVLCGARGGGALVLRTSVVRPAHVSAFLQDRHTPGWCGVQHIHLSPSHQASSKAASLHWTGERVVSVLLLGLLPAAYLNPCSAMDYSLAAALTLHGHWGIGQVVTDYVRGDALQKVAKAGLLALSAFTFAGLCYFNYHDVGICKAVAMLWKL
UniProt Q007T0, sequence (whole entry, looked up): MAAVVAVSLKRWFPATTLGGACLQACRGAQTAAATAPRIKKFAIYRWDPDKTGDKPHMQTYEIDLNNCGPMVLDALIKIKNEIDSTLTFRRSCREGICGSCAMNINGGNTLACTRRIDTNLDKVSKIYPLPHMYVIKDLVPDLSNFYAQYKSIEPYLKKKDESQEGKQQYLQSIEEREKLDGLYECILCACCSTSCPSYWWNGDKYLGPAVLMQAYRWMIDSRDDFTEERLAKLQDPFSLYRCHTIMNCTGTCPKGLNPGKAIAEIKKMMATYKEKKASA
UniProt D0VWV4, sequence (whole entry, looked up): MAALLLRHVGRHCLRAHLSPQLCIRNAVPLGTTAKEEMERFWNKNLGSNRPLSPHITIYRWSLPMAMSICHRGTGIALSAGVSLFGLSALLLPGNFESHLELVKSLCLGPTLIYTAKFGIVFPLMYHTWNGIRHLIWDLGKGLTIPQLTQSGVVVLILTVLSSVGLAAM
UniProt P33533, sequence (whole entry, looked up): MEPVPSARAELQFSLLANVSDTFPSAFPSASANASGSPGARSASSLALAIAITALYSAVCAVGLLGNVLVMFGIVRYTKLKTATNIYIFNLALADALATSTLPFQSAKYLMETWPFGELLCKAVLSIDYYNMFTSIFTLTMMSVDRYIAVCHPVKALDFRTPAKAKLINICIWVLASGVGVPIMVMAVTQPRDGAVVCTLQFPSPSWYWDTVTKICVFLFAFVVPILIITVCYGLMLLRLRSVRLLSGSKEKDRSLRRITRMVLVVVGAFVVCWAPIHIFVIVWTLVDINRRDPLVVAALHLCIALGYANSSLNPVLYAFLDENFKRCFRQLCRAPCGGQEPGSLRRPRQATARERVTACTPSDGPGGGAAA
UniProt Q86YV6, sequence (whole entry, looked up): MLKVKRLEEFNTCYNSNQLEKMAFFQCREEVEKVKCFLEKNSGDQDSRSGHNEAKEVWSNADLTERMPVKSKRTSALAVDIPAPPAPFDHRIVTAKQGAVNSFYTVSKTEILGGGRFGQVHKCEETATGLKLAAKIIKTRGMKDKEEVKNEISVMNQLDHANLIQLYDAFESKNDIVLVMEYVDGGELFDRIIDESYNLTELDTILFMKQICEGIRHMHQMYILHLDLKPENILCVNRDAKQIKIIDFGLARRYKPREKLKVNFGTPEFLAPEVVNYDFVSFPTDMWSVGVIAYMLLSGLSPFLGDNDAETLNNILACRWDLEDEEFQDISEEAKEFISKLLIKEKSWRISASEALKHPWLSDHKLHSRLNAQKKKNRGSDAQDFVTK
UniProt Q9UNU6, sequence (whole entry, looked up): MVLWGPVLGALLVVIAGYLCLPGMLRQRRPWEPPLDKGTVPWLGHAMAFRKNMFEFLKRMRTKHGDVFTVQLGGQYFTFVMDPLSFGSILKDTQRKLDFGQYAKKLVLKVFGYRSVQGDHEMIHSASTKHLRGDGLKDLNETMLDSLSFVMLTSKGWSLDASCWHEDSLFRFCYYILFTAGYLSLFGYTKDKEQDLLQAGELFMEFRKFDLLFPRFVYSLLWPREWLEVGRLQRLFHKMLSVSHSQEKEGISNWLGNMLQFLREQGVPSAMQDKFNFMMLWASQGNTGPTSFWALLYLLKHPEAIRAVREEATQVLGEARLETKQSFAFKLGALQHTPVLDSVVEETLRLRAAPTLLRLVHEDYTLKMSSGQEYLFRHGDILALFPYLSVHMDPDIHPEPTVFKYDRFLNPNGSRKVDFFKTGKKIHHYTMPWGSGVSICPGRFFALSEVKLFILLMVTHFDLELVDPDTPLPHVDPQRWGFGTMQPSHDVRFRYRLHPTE
UniProt P08588, sequence (whole entry, looked up): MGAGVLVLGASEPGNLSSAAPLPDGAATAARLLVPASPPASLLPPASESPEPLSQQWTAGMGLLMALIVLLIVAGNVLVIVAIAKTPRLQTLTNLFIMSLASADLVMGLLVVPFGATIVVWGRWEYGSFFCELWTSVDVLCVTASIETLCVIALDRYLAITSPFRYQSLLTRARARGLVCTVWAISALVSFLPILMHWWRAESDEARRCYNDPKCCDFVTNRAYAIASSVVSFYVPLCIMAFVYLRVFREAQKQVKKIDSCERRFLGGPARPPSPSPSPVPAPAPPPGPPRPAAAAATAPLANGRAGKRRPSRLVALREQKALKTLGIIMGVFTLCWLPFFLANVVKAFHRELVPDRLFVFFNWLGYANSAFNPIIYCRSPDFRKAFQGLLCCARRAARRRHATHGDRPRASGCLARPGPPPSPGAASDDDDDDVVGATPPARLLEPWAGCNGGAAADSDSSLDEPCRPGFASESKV
UniProt P00761, sequence (whole entry, looked up): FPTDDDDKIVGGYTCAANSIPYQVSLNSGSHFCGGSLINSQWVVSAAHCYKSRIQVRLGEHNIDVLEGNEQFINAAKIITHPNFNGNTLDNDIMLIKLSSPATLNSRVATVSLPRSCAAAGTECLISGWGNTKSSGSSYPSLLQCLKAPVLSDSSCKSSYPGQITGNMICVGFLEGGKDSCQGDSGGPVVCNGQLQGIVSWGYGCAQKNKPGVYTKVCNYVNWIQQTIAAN
UniProt Q13464, sequence (whole entry, looked up): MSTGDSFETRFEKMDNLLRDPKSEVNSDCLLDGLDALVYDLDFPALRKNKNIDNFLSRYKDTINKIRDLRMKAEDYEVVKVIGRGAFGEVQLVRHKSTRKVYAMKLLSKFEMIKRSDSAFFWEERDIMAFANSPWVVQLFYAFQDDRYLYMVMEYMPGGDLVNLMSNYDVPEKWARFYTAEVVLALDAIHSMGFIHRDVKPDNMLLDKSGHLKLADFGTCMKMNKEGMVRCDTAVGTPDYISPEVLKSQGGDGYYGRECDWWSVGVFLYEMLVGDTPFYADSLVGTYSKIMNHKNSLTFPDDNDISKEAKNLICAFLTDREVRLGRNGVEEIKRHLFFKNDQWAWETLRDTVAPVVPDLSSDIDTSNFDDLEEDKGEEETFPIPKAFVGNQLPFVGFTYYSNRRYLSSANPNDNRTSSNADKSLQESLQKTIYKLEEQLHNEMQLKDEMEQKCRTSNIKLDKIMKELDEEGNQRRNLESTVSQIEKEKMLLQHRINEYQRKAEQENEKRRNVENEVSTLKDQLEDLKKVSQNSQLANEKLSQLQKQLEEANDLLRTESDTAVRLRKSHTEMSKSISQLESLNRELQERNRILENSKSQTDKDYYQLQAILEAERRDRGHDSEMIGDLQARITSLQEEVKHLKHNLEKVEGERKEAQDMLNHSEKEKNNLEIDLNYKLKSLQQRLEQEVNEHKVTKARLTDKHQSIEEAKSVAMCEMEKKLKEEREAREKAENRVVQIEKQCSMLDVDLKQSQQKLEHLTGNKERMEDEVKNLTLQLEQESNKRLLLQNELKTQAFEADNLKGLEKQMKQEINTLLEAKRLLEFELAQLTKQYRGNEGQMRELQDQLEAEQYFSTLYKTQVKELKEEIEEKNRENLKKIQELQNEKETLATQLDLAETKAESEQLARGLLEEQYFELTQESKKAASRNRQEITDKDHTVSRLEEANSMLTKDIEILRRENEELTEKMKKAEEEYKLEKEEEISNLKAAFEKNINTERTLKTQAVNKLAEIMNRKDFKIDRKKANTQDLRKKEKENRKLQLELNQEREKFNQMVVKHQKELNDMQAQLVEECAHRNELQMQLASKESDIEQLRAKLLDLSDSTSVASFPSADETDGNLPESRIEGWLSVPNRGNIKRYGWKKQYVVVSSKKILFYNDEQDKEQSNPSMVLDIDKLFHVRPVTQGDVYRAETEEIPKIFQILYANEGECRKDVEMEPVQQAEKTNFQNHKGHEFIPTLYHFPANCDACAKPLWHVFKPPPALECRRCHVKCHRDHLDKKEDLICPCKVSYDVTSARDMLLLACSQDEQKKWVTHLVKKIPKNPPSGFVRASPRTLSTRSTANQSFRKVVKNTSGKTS

With `C#CCCCCOc1ccc2c(c1)CCCN2C(=O)CCl` the reactivity ratio was 0.641 (Thioredoxin domain-containing protein 12 (TXNDC12, Homo sapiens, UniProt O95881); mass spectrometry profiling; H460 cell lysate; 100 µM over 10 µM, UniProt O95881; reference: high over low concentration).
`COc1ccccc1-c1n[nH]c2nc(N[C@H]3CC[C@H](NS(=O)(=O)CC(C)C)CC3)ncc12` gave a remaining binding of 13% (cdc2-related kinase 12 (Leishmania donovani, UniProt A0A3S7WQK2); kinobead competition pull-down; Leishmania donovani, cell extract; 0.4 µM; reference: vehicle).
`CCOC(=O)[C@@H]1Cc2c(cc([N+](=O)[O-])cc2[N+](=O)[O-])[C@H](O)[C@]12C(=O)Nc1ccc(Br)cc12` has a remaining binding of 100% (ULK2; binding, competition with immobilised ligand; 0.1 µM).
With `CCCCC1CNCCN1CC1CCCN1CC(Cc1ccc2ccccc2c1)N1CCN(CCCC2CCCC2)C(C(C)O)C1` (stereo not drawn) the remaining binding was 81.3% (Oprd1; radioligand binding; rat brain membranes; 500 nM, pH 7.5, 25 °C, with: 2 nM [3H]DPDPE).
For `Cc1cc(-c2ccc3ccccc3c2)nnc1NCCN1CCN(C)CC1`, uptake inhibition read “negative” (Sodium-dependent dopamine transporter (Slc6a3, Rattus norvegicus, UniProt P23977); monoamine uptake; rat synaptosomes; concentration not given).
The selectivity ratio of `OB(O)c1ccc(OCc2ccccc2)nc1F` is reported as over 27800 (Trypsin (Sus scrofa, UniProt P00761); reference: Ki trypsin over Ki AmpC).
The protein level of `Cc1ncsc1-c1ccc([C@H](C)NC(=O)[C@@H]2C[C@@H](O)CN2C(=O)[C@@H](NC(=O)CN2CCC(CN3CCN(CCC(=O)N4CCN(c5ncc(-c6cc(NC(=O)c7ccc(F)cc7C(F)(F)F)c(N7C[C@@H](C)N(C)[C@@H](C)C7)cc6F)cn5)CC4)CC3)CC2)C(C)(C)C)cc1` is reported as 38.7% and 34.5% and 41% and 38.8% (WD repeat protein WDS (Spodoptera frugiperda, UniProt A0A2H1VC02); degrader, targeted LC-MS; Sf9; concentration not given).
The activity ratio-of-ratios of `CC(C)CC(O)(CC(C)C)c1cn(C(=O)N2CCCC2)nn1` is reported as 1.27 (Protein phosphatase methylesterase 1 (Mus musculus, UniProt Q8BVQ5); probe labelling, inhibitor, item: Ppme1; mouse, brain; i.p., 0.8 mg/kg, 4 h, protein level; reference: treated over vehicle mice, lower = stronger inhibition).
For `O=C(N[C@@H]1c2ccccc2C[C@H]1N1CCCC1)c1ccc(-c2ccnc3[nH]ccc23)nc1`, the remaining binding was 0.3% (Myosin light chain kinase family member 4 (MYLK4, Homo sapiens, UniProt Q86YV6); binding, competition with immobilised ligand; 3 µM).
`N[C@H](C(=O)N1CCCC1)C1CCN(c2nccc3c(-c4ncc(Cl)cc4Cl)cccc23)CC1` gave a response of -1% (Beta-1 adrenergic receptor (ADRB1, Homo sapiens, UniProt P08588); functional response, agonist; 10 µM).
Under activity class, `CC(=O)N[C@@H](CC(=O)O)C(=O)N[C@@H](CCC(=O)O)C(=O)N[C@H](C(=O)N[C@@H](CC(=O)O)C(=O)Nc1ccc2c(C)cc(=O)oc2c1)C(C)C` is recorded as “inactive” (Acetylcholinesterase (ACHE, Homo sapiens, UniProt P22303); biochemical; concentration not given).
With `CN(C)[C@H]1C[C@@]23CC[C@@]4(O2)C(=CC[C@]2(C)[C@@H](c5ccc6ccncc6c5)CC[C@H]24)C=C3[C@@H](O)[C@@H]1O` the inhibition was 15.2% (Rho-associated protein kinase 1 (ROCK1, Homo sapiens, UniProt Q13464); probe labelling, inhibitor, KiNativ ATP probe MS; native lysate; 0.1 µM).
For `CCc1nnc(-c2c(OC)cc(-c3cnc4cc(-c5cnn(C)c5)ccn34)cc2OC)o1`, the remaining binding was 93.9% (Prostaglandin G/H synthase 2 (PTGS2, Homo sapiens, UniProt P35354); radioligand binding; 10 µM, SafetyScreen44 replicate 2; lower = stronger displacement).
Under “reaction rate reduction”, `N[C@H](Cc1ccccc1)P(=O)(O)O` is recorded as 55% (PAL1 (Petroselinum crispum, UniProt P24481); L-Phe deamination, inhibitor, UV steady-state kinetics; 1000 µM, with: L-Phe 5 mM).
With `COc1ccccc1-n1c(SCC(=O)Nc2ccccc2F)nc2cccnc21` the IC50 ratio was 3.6 (Dihydroorotate dehydrogenase (quinone), mitochondrial (PFF0160c, Plasmodium falciparum, UniProt Q08210, E182D); enzyme activity, DCIP colorimetric; reference: E182D mutant over wild type).
With `CC(C)[C@H]1NC(=O)C[C@H]2/C=C/CCSSC[C@@H](NC1=O)C(=O)N[C@H](Cc1cccc3ccccc13)C(=O)NCC(=O)O2` the inhibition was 10.5% (Serine/threonine-protein kinase DCLK2 (DCLK2, Homo sapiens, UniProt Q8N568); enzyme activity, inhibitor; 10 µM).
For `O=C(O)c1ccccc1/C=N/Nc1nc(-c2ccccc2Cl)cs1`, the inhibition was -0.62% (Serine/threonine-protein kinase Sgk2 (SGK2, Homo sapiens, UniProt Q9HBY8); enzyme activity, inhibitor; 1 µM).
`O=C1NC(=O)c2c1c1cc(F)c[n+]3c1c1c2c2cc(O)ccc2[n]1[Ru-4]312([N]=C=S)[S+]3CC[S+]1CC[S+]2CC3` (stereo not drawn) gave a remaining activity of 102% (ULK2; enzyme activity; 100 nM, human enzyme, with: 10 µM ATP; reference: untreated).
With `Cc1cc(Nc2nc(C[C@@]3(C(=O)O)CCN(Cc4cccc(Cl)c4F)[C@H](C)C3)cc(C)c2F)[nH]n1` the activation was -12.7% (Androgen receptor (AR, Homo sapiens, UniProt P10275); agonist; 10 µM).
With `CC[C@H](C)[C@H](NC(C)=O)C(=O)N[C@@H](CCC(=O)O)C(=O)N1CCC[C@H]1C(=O)NC(CS(=O)(=O)O)P(=O)(Oc1ccccc1)c1ccccc1` (stereo partly drawn) the kinact was 0.00105 s⁻¹ (Granzyme B (GZMB, Homo sapiens, UniProt P10144); enzyme activity, inhibitor, FRET).
The inhibition of `CS(C)(=O)=Nc1ccc(-c2ccc(-c3nc4cc(O[C@@H]5CO[C@H]6[C@@H]5OC[C@H]6O)[nH]c4cc3F)cc2)cc1` is reported as -5% (Mitogen-activated protein kinase 12 (MAPK12, Homo sapiens, UniProt P53778); enzyme activity, inhibitor; 10 µM).
`CON(C(=O)c1cn(C)nc1C(F)F)C(C)Cc1c(Cl)cc(Cl)cc1Cl` (stereo not drawn) has a reaction velocity of 0.00727 µM/s and 0.00734 µM/s and 0.00645 µM/s (SDHD/SDHC/SDHB (Sus scrofa, UniProt A5GZW8+D0VWV4+Q007T0); enzyme activity, inhibitor, DCIP reduction; pig; 0.1 µM, with: DCIP 20 µM).
For `CCN1CCN(Cc2ccc(C(=O)Nc3ccc(C)c(NCc4cnc5[nH]ccc5c4OC)c3)cc2C(F)(F)F)CC1`, the remaining binding was 87% (Serine/threonine-protein kinase PRP4 homolog (PRPF4B, Homo sapiens, UniProt Q13523); binding, competition with immobilised ligand; 1 µM).
With `C[C@@]12C(=O)CC[C@H]1[C@@H]1CC=C3C[C@@H](O)CC[C@]3(C)[C@H]1C=C2c1cccnc1` the remaining activity was 93.7 ± 2.04% (7-alpha-hydroxycholest-4-en-3-one 12-alpha-hydroxylase (Homo sapiens, UniProt Q9UNU6); inhibitor; 80 µM, with: 7α-hydroxycholest-4-en-3-one 0.5 µM).
For `O=C1NC2(CC2)COc2ncc(F)cc2[C@H]2COCCN2c2ccn3ncc1c3n2`, “organ-to-body weight ratio” read 0.165 ± 0.039% (Sprague-Dawley rat, female, thymus; oral, 20 mg/kg/day, 4 weeks, end of treatment).
The remaining binding of `C[C@@H](O)[C@@H]1CN([C@@H](CC2CCCCC2)CN2CCC[C@H]2CN2CCNC[C@@H]2Cc2ccc3ccccc3c2)CCN1CCc1ccc(Cl)c(Cl)c1` is reported as 87.4% (Oprd1; radioligand binding; rat brain membranes; 500 nM, pH 7.5, 25 °C, with: 2 nM [3H]DPDPE).
With `C[C@H](NCc1ccc(-c2ccc(C(F)(F)F)cc2)cc1)C(N)=O` the inhibition was 0% (Mast/stem cell growth factor receptor Kit (KIT, Homo sapiens, UniProt P10721); cell-free assay, competition with immobilised ligand; 1 µM).

Some of these lines once more:
With `CC[C@H](C)[C@H](NC(C)=O)C(=O)N[C@@H](CCC(=O)O)C(=O)N1CCC[C@H]1C(=O)NC(CS(=O)(=O)O)P(=O)(Oc1ccccc1)c1ccccc1` (stereo partly drawn) the kinact was 0.00105 s⁻¹ (Granzyme B (GZMB, Homo sapiens, UniProt P10144); enzyme activity, inhibitor, FRET).
The inhibition of `CS(C)(=O)=Nc1ccc(-c2ccc(-c3nc4cc(O[C@@H]5CO[C@H]6[C@@H]5OC[C@H]6O)[nH]c4cc3F)cc2)cc1` is reported as -5% (Mitogen-activated protein kinase 12 (MAPK12, Homo sapiens, UniProt P53778); enzyme activity, inhibitor; 10 µM).
`CON(C(=O)c1cn(C)nc1C(F)F)C(C)Cc1c(Cl)cc(Cl)cc1Cl` (stereo not drawn) has a reaction velocity of 0.00727 µM/s and 0.00734 µM/s and 0.00645 µM/s (SDHD/SDHC/SDHB (Sus scrofa, UniProt A5GZW8+D0VWV4+Q007T0); enzyme activity, inhibitor, DCIP reduction; pig; 0.1 µM, with: DCIP 20 µM).
For `CCN1CCN(Cc2ccc(C(=O)Nc3ccc(C)c(NCc4cnc5[nH]ccc5c4OC)c3)cc2C(F)(F)F)CC1`, the remaining binding was 87% (Serine/threonine-protein kinase PRP4 homolog (PRPF4B, Homo sapiens, UniProt Q13523); binding, competition with immobilised ligand; 1 µM).
